# Published values of several laboratories.
# Lines come from different studies, so protocols differ. Values joined by “and” are separate records of one study, mostly repeats; a detail may differ.
# Cell line: MRC5
SMILES,test,setting,IC50
C=C(C)[C@H]1CC[C@@]2(C)CC[C@]3(C)C[C@H]4[C@@H](C)C[C@@]5(O)OC(=O)/C(=C/C[C@H]3[C@H]12)[C@@H]45,"cell growth or viability, MTT",72 h,15 µM
C[C@]12CC/C(=N\OCCN3CCCCC3)C=C1CCC1C2CC[C@]2(C)/C(=C/c3ccccn3)CCC12 (some centres unmarked),"cell growth or viability, MTT",72 h,> 100 µM
c1ccc(-c2nn(-c3nc4ccccc4s3)[n+](-c3ccccc3)n2)cc1,"cell growth or viability, resazurin",72 h,97 µM
C[C@]12CC[C@@H]3c4ccc(O)cc4CC[C@H]3[C@@H]1CC[C@@]2(O)c1cn(CC(=O)c2ccc(F)cc2)nn1,"cell growth or viability, resazurin",72 h,> 52.5 µM
Cc1cc(C)c([N+]#[C][Pd-]([Cl])([Cl])=[C](Nc2ccc(CN[C](Nc3c(C(C)C)cccc3C(C)C)=[Au][Cl])cc2)Nc2c(C)cc(C)cc2C)c(C)c1,cell growth or viability,,6 µM
Oc1ccccc1-c1nn(-c2ccccn2)[n+](-c2ccccc2)n1,"cell growth or viability, resazurin",72 h,> 160 µM and 160 µM
CC1=C(Cn2c3ccc(Cl)c(=O)c-3nc3ccccc32)CCC(C)(C)C1,"cell growth or viability, CCK-8",72 h,0.37 µM
COC(=O)c1cnc(-c2cnccn2)cc1C(=O)OC.COC(=O)c1cnc(-c2cnccn2)cc1C(=O)OC.O=S(=O)([O-])C(F)(F)F.O=S(=O)([O-])C(F)(F)F.[Cu+2],"cell proliferation, MTT",48 h,130 µM
CC(C)c1cccc(C(C)C)c1[N+]#[C][Pt-]([Cl])([Cl])=[C](Nc1ccc(CN[C](Nc2c(C(C)C)cccc2C(C)C)=[Au][Cl])cc1)Nc1c(C(C)C)cccc1C(C)C,cell growth or viability,,> 100 µM
COc1ccc(/N=N/C(=S)N2CCCCC2)cc1,"cell growth or viability, resazurin",48 h,> 50 µM
CC(C)(C)N=[C](NCc1cccc(N)c1)[AuH][Cl],cell growth or viability,,> 100 µM
CN(C)CCCO/N=C1/C=C2CCC3C(CC[C@]4(C)/C(=C/c5ccccn5)CCC34)[C@@]2(C)CC1 (some centres unmarked),"cell growth or viability, MTT",72 h,> 100 µM
CC(C)c1cccc(C(C)C)c1[N+]#[C][Pd-]([Cl])([Cl])=[C](Nc1cccc(CN[C](Nc2c(C(C)C)cccc2C(C)C)=[Au][Cl])c1)Nc1c(C(C)C)cccc1C(C)C,cell growth or viability,,> 100 µM
C/C1=C/C[C@H]2[C@@H]3[C@@H]([C@@]4(C)CO4)CC[C@@]3(C)CC[C@]2(C)C[C@H]2[C@@H](C)CC[C@@H]12,"cell growth or viability, MTT",72 h,14 µM
Cn1ccn(N=Cc2ccccc2SSc2ccccc2C=Nn2ccn(C)c2=S)c1=S,"cell growth or viability, MTT",72 h,24 µM
C[C@]12CC/C(=N\O)C=C1CCC1C2CC[C@]2(C)/C(=C/c3ccccn3)CCC12 (some centres unmarked),"cell growth or viability, MTT",72 h,> 100 µM
Cc1cc(C)c([N+]#[C][Pt-]([Cl])([Cl])=[C](Nc2ccc(CN[C](NC(C)(C)C)=[Au][Cl])cc2)Nc2c(C)cc(C)cc2C)c(C)c1,"cell viability, CellTiter-Glo",96 h,inactive
c1ccc(N=NC(=NNc2ccccn2)c2ccccc2)cc1,"cell growth or viability, resazurin",72 h,< 30 µM
Cc1cc(C)c([N+]#[C][Pd-]([Cl])([Cl])=[C](Nc2ccc(CN[C](NC(C)(C)C)=[Au][Cl])cc2)Nc2c(C)cc(C)cc2C)c(C)c1,cell growth or viability,,> 100 µM
COc1ccc(/N=N/C(=S)N2CCCC2)cc1,"cell growth or viability, resazurin",48 h,> 50 µM
CCN(CC)CCO/N=C1/C=C2CCC3C(CC[C@]4(C)/C(=C/c5ccccn5)CCC34)[C@@]2(C)CC1 (some centres unmarked),"cell growth or viability, MTT",72 h,86.4 µM
Cc1cc(C)c(N[C](NCc2ccc(N[C](Nc3c(C(C)C)cccc3C(C)C)=[Pt-]([Cl])([Cl])[C]#[N+]c3c(C(C)C)cccc3C(C)C)cc2)=[Au][Cl])c(C)c1,cell growth or viability,,> 100 µM
COc1ccc(C(=O)c2cc(C(=O)c3cc(Cl)ccc3O)c[n+]3c2NCCCC3)cc1,"cell growth or viability, MTT",96 h,34 µM
Cn1c2ccc(Cl)c(=O)c-2nc2ccccc21,"cell growth or viability, CCK-8",72 h,4.41 µM
CC1=CC2(C)C(=C(C)C3C4CC(C)CC(C)C4C4Oc5ccc(cc5)CC5(O)NC(=O)C(=C(O)C2C43)C5Nc2ncnc3c2ncn3C2OC(CO)C(O)C2O)C1C (centres unmarked),"cell growth or viability, resazurin",72 h,21.2 µM
COc1ccc(C(=O)Cn2cc([C@]3(O)CC[C@H]4[C@@H]5CCc6cc(O)ccc6[C@H]5CC[C@@]43C)nn2)cc1,"cell growth or viability, resazurin",72 h,> 52.5 µM
CC(C)c1cccc(C(C)C)c1[N+]#[C][Pt-]([Cl])([Cl])=[C](Nc1ccc(CN[C](NC(C)(C)C)=[Au][Cl])cc1)Nc1c(C(C)C)cccc1C(C)C,cell growth or viability,,> 100 µM
C=C(C)[C@H]1CC[C@@]2(C)CC[C@]3(C)C[C@H]4[C@@H](C)[C@H](O)C[C@H]4/C(C)=C\C[C@H]3[C@H]12,"cell growth or viability, MTT",72 h,11 µM
COc1cc(C2Oc3ccc(C=C4Oc5cc(O)ccc5C4=O)cc3OC2CO)cc(OC)c1O (centres unmarked),"cell growth or viability, MTT",72 h,63.2 µM
CC(C)=CCn1c2ccc(Br)c(=O)c-2nc2ccccc21,"cell growth or viability, CCK-8",72 h,0.54 µM
C[C@]12CC/C(=N\OCCN3CCCC3)C=C1CCC1C2CC[C@]2(C)/C(=C/c3ccccn3)CCC12 (some centres unmarked),"cell growth or viability, MTT",72 h,> 100 µM
COc1ccccc1C(=O)c1c(-n2c(C(=O)c3ccccc3OC)cc(Cl)c2Cl)c(Cl)c(Cl)n1C,"cell growth or viability, resazurin",24 h,> 64 µg/mL
